Measured values collected from several papers.
Protocols differ between the studies behind these lines. ± gives the spread as reported.
B1: bglA A17S (Acetivibrio thermocellus, UniProt P26208); chain MSKITFPKDFIWGSATSAYQIEGAYNEDGKGESIWDRFSHTPGNIADGHTGDVACDHYHRYEEDIKIMKEIGIKSYRFSISWPRIFPEGTGKLNQKGLDFYKRLTNLLLENGIMPAITLYHWDLPQKLQDKGGWKNRDTTDYFTEYSEVIFKNLGDIVPIWFTHNEPGVVSLLGHFLGIHAPGIKDLRTSLEVSHNLLLSHGKAVKLFREMNIDAQIGIALNLSYHYPASEKAEDIEAAELSFSLAGRWYLDPVLKGRYPENALKLYKKKGIELSFPEDDLKLISQPIDFIAFNNYSSEFIKYDPSSESGFSPANSILEKFEKTDMGWIIYPEGLYDLLMLLDRDYGKPNIVISENGAAFKDEIGSNGKIEDTKRIQYLKDYLTQAHRAIQDGVNLKAYYLWSLLDNFEWAYGYNKRFGIVHVNFDTLERKIKDSGYWYKEVIKNNGF
B2: enzyme (Arabidopsis thaliana, UniProt Q944I4); chain SSYLSSKLSPIRTHSSFAACGCSWIQDNSMVHDYATTTNGTSKRCSALPTTNTVDVSSVSDLFEFICSGPLVNKIGITPQRVGQSIDKWLLYGSQLCRLFQLNELKLTIPQKARLYHYYIPVFIWCEDQIALHNSKFKDGDDVPPLVIGFSAPQGCGKTTLVFALDYLFKTTKKKSATISVDDFYLTAEGQAELRKKNPGNALLEYRGNAGSHDLKLSVETLEALSKLTKEGLKMKVPRYNKSAYSGRGDRADSSTWPEVEGPLSVILFEGWMLGFKPLPADVVKAVDPQLEVVNKNLEAYYDAWDKYIDAWVVIKIQDPSYVYRWRLQAEIAMRQDGQAGMSDEEVNDFVSRYLPAYKAYLPTLYAEGPSGSDPDRVLAIDIDEERNPILAN
B3: enzyme (Bacillus thuringiensis, UniProt P0CJ63); chain MTVKKLYFIPAGRCMLDHSSVNSALTPGKLLNLPVWCYLLETEEGPILVDTGMPESAVNNEGLFNGTFVEGQILPKMTEEDRIVNILKRVGYEPDDLLYIISSHLHFDHAGGNGAFTNTPIIVQRTEYEAALHREEYMKECILPHLNYKIIEGDYEVVPGVQLLYTPGHSPGHQSLFIETEQSGSVLLTIDASYTKENFEDEVPFAGFDPELALSSIKRLKEVVKKEKPIIFFGHDIEQEKSCRVFPEYI
B4: enzyme (Enterococcus faecalis, UniProt Q836M4); chain MEIHFEKVTSDNRKAVENLQVFAEQQAFIESMAENLKESDQFPEWESAGIYDGNQLIGYAMYGRWQDGRVWLDRFLIDQRFQGQGYGKAACRLLMLKLIEKYQTNKLYLSVYDTNSSAIRLYQQLGFVFNGELDTNGERVMEWTHQNK
B5: enzyme A477T (Populus trichocarpa, UniProt A0A2K1ZZ60); chain ITRQYTFNITHKNFTRLCHTRSLVTVNGQFPGPRLVAREGDQVLVKVVNHVAENITIHWHGVRQLTSGWADGPAYVTQCPIQTGQAYTYNFTITGQRGTLLWHAHISWLRSSLYGPIIILPKLNESYPFKKPYKEIPILFGEWFNVDPEAVIAQALQTGAGPNVSDAYTINGLPGPLYNCSAKDTYKLKVKPGKTYLLRLINAALNDELFFSIANHTLTVVEADAVYVKPFEADTLLISPGQTTNVLLKTKPHLPNATFYMFAGPYFSGMGSFDNSTTAGVLVYKHPSSNNHLKKLPTLKPTLPPINATGFVANFTKKFRSLANAKFPANVPQTVDRKFFFTVGLGTNPCPKNTTCQGPNNNTKFAASINNVSFVLPSVALLQSYFFGQSNGVFTSDFPQNPTIPFNYTGTPPNNTMVSNGTKAVVLTFNTSVELVMQGTSIVTAESHPLHLHGFNFFVVGQGFGNYDPNKDPSNFNLVDPMERNTAGVPAGGWIAIRFLADNPGVWFMHCHLDVHTSWGLRMAWIVLDGPQPNQKIPPPPSDLPKC
Chain of UniProt O31616 (whole entry, looked up): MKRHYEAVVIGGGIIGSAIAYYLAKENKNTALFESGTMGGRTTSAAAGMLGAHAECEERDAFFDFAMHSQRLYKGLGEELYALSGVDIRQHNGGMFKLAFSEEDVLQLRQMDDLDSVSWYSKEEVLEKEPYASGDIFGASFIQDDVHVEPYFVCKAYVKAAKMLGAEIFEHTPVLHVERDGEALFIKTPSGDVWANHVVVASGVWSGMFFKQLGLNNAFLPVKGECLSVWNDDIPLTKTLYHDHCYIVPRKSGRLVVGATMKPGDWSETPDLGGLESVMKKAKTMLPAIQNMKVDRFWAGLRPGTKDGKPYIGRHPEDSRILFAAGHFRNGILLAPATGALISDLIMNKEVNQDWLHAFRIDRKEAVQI
Chain of UniProt Q9I4K6 (whole entry, looked up): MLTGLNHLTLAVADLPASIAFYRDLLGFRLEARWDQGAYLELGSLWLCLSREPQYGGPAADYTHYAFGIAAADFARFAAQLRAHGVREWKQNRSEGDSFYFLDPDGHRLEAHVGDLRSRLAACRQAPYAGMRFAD
Chain of UniProt A0A0K8P6T7 (whole entry, looked up): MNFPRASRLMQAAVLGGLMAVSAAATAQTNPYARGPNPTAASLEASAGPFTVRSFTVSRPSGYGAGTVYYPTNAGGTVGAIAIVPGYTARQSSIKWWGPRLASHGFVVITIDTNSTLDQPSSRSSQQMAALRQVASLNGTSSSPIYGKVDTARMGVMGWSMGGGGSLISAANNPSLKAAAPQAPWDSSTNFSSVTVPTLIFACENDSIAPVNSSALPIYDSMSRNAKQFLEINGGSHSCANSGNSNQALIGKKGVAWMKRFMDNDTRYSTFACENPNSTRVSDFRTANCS

With `rCR L137V/L34A (Lodderomyces parapsilosis)` the kcat was 2.72 s⁻¹ (CC(=O)c1ccccc1; steady-state kinetics; pH 7, 30 °C, added: NADH 0.5 mM).
For `fosA (Pseudomonas aeruginosa, UniProt Q9I4K6)`, the kcat was 180 ± 6 s⁻¹ (C[C@@H]1O[C@@H]1P(=O)(O)O; steady-state kinetics).
With `B1 (bglA A17S)` the kcat was 400 ± 14 s⁻¹ (O=[N+]([O-])c1ccc(O[C@@H]2O[C@H](CO)[C@@H](O)[C@H](O)[C@H]2O)cc1; steady-state kinetics; pH 5.5, 60 °C).
`enzyme (Bacillus subtilis, UniProt O31616)` has a kcat of 0.443 ± 0.056 s⁻¹ (O=C(O)CNCP(=O)(O)O; steady-state kinetics; pH 8, 25 °C).
`insulin human` has a fold change of 0.849 (measured: NRGN mRNA; uninfected mouse, brain; i.p., dose not given; relative to: PBS).
`fcl (Campylobacter jejuni, UniProt Q0P8I6)` gave a kcat of 3.1 ± 0.2 s⁻¹ (Nc1nc2c(ncn2[C@@H]2O[C@H](COP(=O)(O)OP(=O)(O)O[C@H]3O[C@@H](CCO)C(=O)[C@@H](O)[C@@H]3O)[C@@H](O)[C@H]2O)c(=O)[nH]1; steady-state kinetics; pH 7.5, 25 °C, apparent).
For `B2 (enzyme)`, the kcat was 84.8 ± 2.11 s⁻¹ (Nc1ncnc2c1ncn2[C@@H]1O[C@H](COP(=O)(O)OP(=O)(O)OP(=O)(O)O)[C@@H](O)[C@H]1O; steady-state kinetics; pH 7.8, 30 °C).
With `Cj1438c (Campylobacter jejuni, UniProt Q0P8H6)` the kcat was 3 ± 0.1 s⁻¹ (NCCOP(=O)(O)O; steady-state kinetics; pH 8, 25 °C, apparent).
`nfsB K14Q (Escherichia coli)` gave a kcat of 1.7 ± 0.1 s⁻¹ (NC(=O)N/N=C/c1ccc([N+](=O)[O-])o1; steady-state kinetics; pH 7, 37 °C).
The kcat of `B3 (enzyme)` is reported as 176 ± 17.1 s⁻¹ (CCCC(=O)N[C@H]1CCSC1=O; steady-state kinetics; pH 8, added: CoCl2 0.2 mM, DTNB 2 mM).
`B4 (enzyme)` gave a kcat of 0.66 ± 0.02 s⁻¹ (NCCCCNCCCN; steady-state kinetics; pH 8, 37 °C, added: AcCoA 1 mM).
`enzyme (Pseudideonella sakaiensis, UniProt A0A0K8P6T7)` has a kcat of 6.5 s⁻¹ (O=C(OCCO)c1ccc(C(=O)OCCO)cc1; steady-state kinetics; 30 °C).
With `B5 (enzyme A477T)` the kcat was 5.09 ± 0.69 s⁻¹ (COc1cc(/C=C/CO)cc(OC)c1O; steady-state kinetics; 27 °C).

Excerpt of the above:
`insulin human` has a fold change of 0.849 (measured: NRGN mRNA; uninfected mouse, brain; i.p., dose not given; relative to: PBS).
